Results pooled from the literature.
Numbered parts are unrelated; each lists some results of a single study. Substitutions count along the parent as printed.

Sample 1 — technique: competition protein-binding microarray; form: double-stranded DNA, one strand shown; medium: in vitro; tested at: 2 µM; added: Pho4 competitor, 0.05 µM; direction: higher = stronger binding; all sequences stand within: … GTCTTGATTCGCTTGACGCTGCTG
Target: Centromere-binding protein 1, full length, His-tagged (CBF1, Saccharomyces cerevisiae, UniProt P17106, residues 1-351)
Sequence of UniProt P17106 (whole entry, looked up): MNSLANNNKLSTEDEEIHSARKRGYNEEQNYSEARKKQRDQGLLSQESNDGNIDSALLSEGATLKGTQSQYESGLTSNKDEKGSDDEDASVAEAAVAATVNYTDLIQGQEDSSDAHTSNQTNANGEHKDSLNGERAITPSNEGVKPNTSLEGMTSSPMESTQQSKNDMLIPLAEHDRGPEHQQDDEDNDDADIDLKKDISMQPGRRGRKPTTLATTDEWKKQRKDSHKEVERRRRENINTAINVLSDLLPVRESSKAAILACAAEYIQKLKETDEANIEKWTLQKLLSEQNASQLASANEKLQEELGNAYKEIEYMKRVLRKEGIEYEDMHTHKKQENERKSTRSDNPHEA
Notes: whole 60-bp probe, lowest competitor level
Strand	fluorescence intensity
CGTCCTAGTGATTGCTATGTGGGTGCCATGAGGAAG	92 a.u.
TAGGAAGAACCGGTTCTCGTGGTGATGTCCCCCAAG	79.3 a.u.
GTCTTGTCTCATTGGGACGTGGGTGTCCCCACTTCA	57.6 a.u.
TATTTTTAGATATCTCACGTTTATACACATTGCCCA	137 a.u.
CAGCAAGTGTCCCAGCATGTGATGCTCACCAATCAG	349 a.u.
AGGCTCGCTGGTCAACACATGCTGTGAGCAGGCCTG	65.8 a.u.
CTTTCCCGATCTTTTCACGTGAACTTAGCACATTTG	1050 a.u.
AAAGCGGTAATTTAGCACGTGTTTTCACATATCTAT	2810 a.u.

Sample 2 — target: CCNE2, cyclin fold, Cln2 fusion (human); technique: yeast growth competition, sequencing; medium: yeast; notes: strong parent motif; relative to: not given; direction: higher = stronger binding
Parent: BRCA2 docking peptide (human); PSIKRNLLNEFDR; partner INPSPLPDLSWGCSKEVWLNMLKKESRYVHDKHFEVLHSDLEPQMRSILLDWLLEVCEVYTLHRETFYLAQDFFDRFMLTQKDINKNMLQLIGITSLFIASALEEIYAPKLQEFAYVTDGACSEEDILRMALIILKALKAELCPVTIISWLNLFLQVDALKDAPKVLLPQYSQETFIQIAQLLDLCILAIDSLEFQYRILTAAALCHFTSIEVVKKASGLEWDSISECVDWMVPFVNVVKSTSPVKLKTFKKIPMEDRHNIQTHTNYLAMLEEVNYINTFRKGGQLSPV
Substitution	normalised enrichment score
L8I	1.52
N6S	1.38
L7T	0.579
R5G	0.00243
K4N	-0.214
D12P	1.11
E10Q	0.759
F11A	0.515

Sample 3 — technique: universal PBM; form: double-stranded DNA, one strand shown; medium: in vitro; tested at: 600 nM; direction: higher = stronger binding
Target: Sal-like protein 4, full length isoform A (SALL4, Homo sapiens, UniProt Q9UJQ4, residues 1-1053)
Sequence of UniProt Q9UJQ4 (whole entry, looked up): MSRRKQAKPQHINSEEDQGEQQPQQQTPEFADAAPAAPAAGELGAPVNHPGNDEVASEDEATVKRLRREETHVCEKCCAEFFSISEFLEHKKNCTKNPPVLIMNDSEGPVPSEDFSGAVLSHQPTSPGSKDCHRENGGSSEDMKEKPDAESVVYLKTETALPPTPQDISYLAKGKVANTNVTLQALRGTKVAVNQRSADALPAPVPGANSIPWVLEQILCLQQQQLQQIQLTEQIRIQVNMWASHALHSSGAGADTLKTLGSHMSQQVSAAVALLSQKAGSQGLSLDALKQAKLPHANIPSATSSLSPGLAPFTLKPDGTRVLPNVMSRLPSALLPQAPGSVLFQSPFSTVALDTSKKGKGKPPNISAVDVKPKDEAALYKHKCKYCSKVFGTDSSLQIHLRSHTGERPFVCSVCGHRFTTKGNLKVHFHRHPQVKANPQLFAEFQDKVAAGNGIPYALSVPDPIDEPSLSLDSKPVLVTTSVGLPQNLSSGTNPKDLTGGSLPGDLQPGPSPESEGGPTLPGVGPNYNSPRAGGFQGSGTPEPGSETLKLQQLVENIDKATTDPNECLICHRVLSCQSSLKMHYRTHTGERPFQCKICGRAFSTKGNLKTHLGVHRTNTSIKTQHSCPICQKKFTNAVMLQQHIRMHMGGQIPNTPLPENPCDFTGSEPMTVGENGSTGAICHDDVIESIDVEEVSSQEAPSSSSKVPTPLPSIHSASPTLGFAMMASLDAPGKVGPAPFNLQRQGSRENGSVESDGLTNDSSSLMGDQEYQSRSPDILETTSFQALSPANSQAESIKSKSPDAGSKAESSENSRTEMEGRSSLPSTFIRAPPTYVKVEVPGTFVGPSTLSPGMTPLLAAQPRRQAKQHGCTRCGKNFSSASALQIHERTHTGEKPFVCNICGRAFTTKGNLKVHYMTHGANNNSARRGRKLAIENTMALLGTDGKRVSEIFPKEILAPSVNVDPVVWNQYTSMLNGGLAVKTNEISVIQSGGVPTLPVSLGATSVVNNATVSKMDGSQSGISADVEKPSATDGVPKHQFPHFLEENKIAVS
Notes: 8-mer, flanks averaged, mean of replicates
Strand	E-score
GACTCTGC	-0.149
CAGGATGA	-0.0341
CAGCCACG	-0.171
ACCAGCCG	-0.323
CATGGGAG	-0.0898
GACCATCA	-0.0603
ATCGTTCG	0.015
ACTAGGCC	-0.272
GAACTGGA	-0.0076
TGTACACA	0.28
TCCAACAA	0.0636
GAAGTTAA	0.132

Single results of other studies
Substance	target	test	test system	setting	how to read	endpoint	result
PhoQ, residues 284 288 289 292 302 303 TYGVAM	PhoP, residues 12 14 15 18 19 YHFSH (Escherichia coli, UniProt P23836)	Sort-seq, measured: YFP reporter	E. coli	PhoQ-PhoP variant library, added: 10 µM Mg2+	relative to: high Mg2+ state, higher = stronger signaling	fold induction	11.9

For quick reference, copied from above (sample 1):
Strand	fluorescence intensity
CGTCCTAGTGATTGCTATGTGGGTGCCATGAGGAAG	92 a.u.
TAGGAAGAACCGGTTCTCGTGGTGATGTCCCCCAAG	79.3 a.u.
